Published values of several laboratories.
A part holds a random share of what one study measured.

Series 1 — method: RNA Bind-n-Seq; molecule type: RNA; sample: in vitro; tested at: 1 µM; setting: whole 134-nt RNA, ends assumed; together with: 150 mM KCl; relative to: input library; reading: higher = stronger binding; quantity: log2 enrichment
Target: Ras GTPase-activating protein-binding protein 1, RRM domain (G3BP1, Homo sapiens, UniProt Q13283)
Sequence of UniProt Q13283 (whole entry, looked up): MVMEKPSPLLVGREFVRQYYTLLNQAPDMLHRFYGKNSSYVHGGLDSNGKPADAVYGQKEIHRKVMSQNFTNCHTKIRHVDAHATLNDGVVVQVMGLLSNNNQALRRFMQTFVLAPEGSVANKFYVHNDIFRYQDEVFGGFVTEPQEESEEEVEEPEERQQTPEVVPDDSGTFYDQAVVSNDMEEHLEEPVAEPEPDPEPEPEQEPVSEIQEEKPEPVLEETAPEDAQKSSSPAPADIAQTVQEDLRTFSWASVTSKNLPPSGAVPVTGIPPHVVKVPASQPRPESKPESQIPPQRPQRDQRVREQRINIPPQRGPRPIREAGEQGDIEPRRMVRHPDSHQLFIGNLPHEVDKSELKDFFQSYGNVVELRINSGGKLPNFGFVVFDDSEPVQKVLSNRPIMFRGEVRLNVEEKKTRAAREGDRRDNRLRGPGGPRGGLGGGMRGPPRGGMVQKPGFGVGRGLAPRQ
Shared flanks, not repeated: GGGAGUUCUACAGUCCGACGAUC … UGGAAUUCUCGGGUGUCAAGG
UCAAGUCCUGUGCUACACAUCGUAUGUACCGAAUCGGAAAGGUUUUUUUGGUGGAAAGUAUUAUGUUACGCCGUUCGGAUCUGCACUUCC: -0.251
GCAGGAAGUAAAAACAAAUGGAAAUGCUUCGGAUAGUGGCAGGGGUGGGGGUUGCUAAGGAAAGGGUGGGAUGGGAGUGAGUAAAGAGUU: 1.13
GCAGGAAGUAAAAACAAAUGGGAAUGCUUCGGAUAGUGGCAGGGGUGGGGGUUGCUAAGGAAAGGGUGGGAUGGGAGUGGGUAAAGAGUU: 1.22
UGGCCCUGGUGGCAUGCGGGGAGGAAGAGGUGGCCUCAUGGAUCGUGGUGGUCCUGGUGGAAUGUUCAGAGGUGGCCGUGGUGGAGACAG: 0.405
UUCACAGGUAAGUGGGGCAGUGUCCGGACCAGUGGACGCAGCAGUGGCCUUGGCACCGAUGUGGGCUCCCGGCUAGCUGGCAGAGACGCG: -0.549
AAGUCCUGUGCUACACAUCGUAUGUACCGAAUCGGAAAAAAAGGUGGUUUUUUUGGAAAGUAUUAUGUUACGCCGUUCGGAUCUGCACUU: -0.154
AAGUCCUGUGCUACACAUCGUAUGUACCGAAUCGGGAAAAAGGGUUUUUGGGAGGGAAAGUAUUAUGUUACGCCGUUCGGAUCUGCACUU: 0.779
AAGUCCUGUGCUACACAUCGUAUGUACCGAAUCGGGAAAGGGGAAAGGGAAAGGGGAAAGUAUUAUGUUACGCCGUUCGGAUCUGCACUU: 0.613
GUGGACAACGCGUACUGGCUGUGGACUUUCCAGGGACGCCUCCUGCAGAAGAACAACAAGGACCGCUUCUGCCAGCUGCUGUGGCGGCCC: -0.468
AAGUCCUGUGCUACACAUCGUAUGUACCGAAUCGGGUUUUUGGGUUUGGGAAAGGGAAAGUAUUAUGUUACGCCGUUCGGAUCUGCACUU: 0.358

Series 2 — method: RNA Bind-n-Seq; molecule type: RNA; sample: in vitro; tested at: 365 nM; relative to: no-protein control; reading: higher = stronger binding; quantity: RBNS enrichment (R)
Target: RNA binding protein fox-1 homolog 2, RRM domain, GST-SBP tag (RBFOX2, Homo sapiens, UniProt O43251-10, residues 100-194)
Setting: natural RNA segment, single round, ends assumed
Shared flanks, not repeated: GGGAGUUCUACAGUCCGACGAUC … UGGAAUUCUCGGGUGCCAA
Target sequence (chain): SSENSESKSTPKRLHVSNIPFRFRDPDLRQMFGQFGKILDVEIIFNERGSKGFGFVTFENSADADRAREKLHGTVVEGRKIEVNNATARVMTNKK
ACUUGACAUGGUAACAUCACUAUUAUAUACUAGAAGCAAGAAUUUUACACUUAUGCUCUAAGUGAUCCUUUUAAAAAUUUUCUGAACUAUUUGAGGAAAGUAUUAUUUGU: 0.61
ACUAAGUGUUUUCAAAUAAAUCUAAAUCUUCAGCAUGAUGUGUUGUGUAUAAUUGGAGUAGAUAUUAAUUAAGUCACCUGUAUAAUGUUUUGUAAUUUUGCAAAACAUAU: 5.44
CACUUGAUGGUGGUUUCCUGUGUUCCUGUGGCGCUGCUCCUGGGGGGAAGAGUGUGCUCUAGCAGGCCGUGAUCCCAGAGCCAGCAGGAUUGAUGACCAGGGCCCUUCCU: 0.325
CAUCCUUUCUUAUUCAUAGCGCACCACCCAAAGUCUGUGUGUUUGUGACAGUCUGUGGGGACUGUCCCAGUGCCUUUGUGAUGACCUAAACUGCACUGAGUCUCUUGCCA: 0.982
AAUGGCGUCUGCUCUGGUGGCUUAAGUGAGCAGAACAGGUAGUAUUACACCACCGGCCCCCUCCCCCCAGACUCUUUUUUUGAGUGACAGCUUUCUGGGAUGUCACAGUC: 0.345
UAAGCGUGUGUCUUUUUAACUUAGUCCUAAGGUAAUCCAUUCAGAAGACAGCUUGCCUUUGUGUUCCUAUGAAGACUGUCCCCAACCUUGGACGUGUCCCCUUUAUUUCA: 0.493
AUUGUAGGUGUGAUGUUAUGCACAGGAUGCUCAGAGCUAUGUUACUACUAUUCUUAGUUUGUAAAUUGUCCUUUUGAUACCAUCUUGUUUUCUUUUGUAGGUAUAAAUAA: 0.917
CUCCUUUCAGUGUUCUUGCUGUUCAAGUUAUUCCUCUCAGACAUCCUCCAUUGUCCCACGCACUCCUUGGCAGCAGAAUGCUGGCAGCUUGUGACCCUCAUGUUUCCUGU: 0.56
AAAUUUUAAAGAGAUACUGGUAUUUUGAAAAUGCAACCUAUAUAUAUUCUUAAUAUCCUUUUAAGAAUAUGGAGAUGAAGAUUGUUUUCUCCAAUUUUCUGUGCCAUUUU: 3.15
GCCCAAACAGAUGUUCUGGGUGCGAGCCCGGGGCUAUAUUGGCGAGGGCGACAUGAAGAUGCACUGCUGCGUGGCCGCCUAUAUCUCCGACUAUGCCUUCUUGGGCACUG: 0.405
AAGAUUCUGAGCUCUCUCUCUGUUUUGUUCUAGCCAUGAAUUUGCCUGAGAAACUUGUAACCUAUGUGCCUCAAUAUAUUCCAUAGAAAGUAGGUCCCCCUGCCUUCUCC: 0.335
CAUGCCGGGGGGCCAGUGGAAAGAAGACAGGCCGUCCAGCCCGUGCCCGCCUGCGGCGGGGGCACCCAGCAAGCCCGCCCACCGCCCGCUGCCUCACCUGCUUCGCCACA: 0.246

Series 3 — method: protein binding microarray; molecule type: double-stranded DNA, one strand shown; sample: in vitro; tested at: not given; relative to: not given; reading: higher = stronger binding; quantity: E-score
Target: Histone acetyltransferase KAT6A, winged helix 2, GST fusion (KAT6A, Homo sapiens, UniProt Q92794, residues 85-181)
Setting: 8-mer, flanks averaged, mean of 2 arrays, mostly near background
Construct (chain): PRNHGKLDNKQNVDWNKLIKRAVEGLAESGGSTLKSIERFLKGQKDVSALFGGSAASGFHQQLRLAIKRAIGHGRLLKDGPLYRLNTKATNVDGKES
CCCCTTAA: -0.153
AGTATTGA: -0.0575
AGTATGCG: -0.0266
ATGTGAGC: -0.129
AACCCTTA: -0.00722
CCTTCTGC: 0.0711
ACAGGTCA: -0.161
TCTCTGCA: -0.0746
AAGTCGAT: -0.154
CACTTCAG: 0.0472
AGACAAGC: -0.0035
GCGGTTGA: -0.0783
CACATCTC: -0.0915
GAAAAGGA: -0.0196
GTCGTCAC: -0.0512
AAAAAGCA: 0.106
CAAAGCTG: 0.0794
CAAGAAAG: 0.179
ACAGTGTA: -0.0152
AACTAGTC: -0.206
GGGATCCC: 0.156

Series 4 — method: universal PBM; molecule type: double-stranded DNA, one strand shown; sample: in vitro; tested at: not given; reading: higher = stronger binding; quantity: E-score
Target: Sal-like protein 4, full length isoform B (SALL4, Homo sapiens, UniProt Q9UJQ4-2, residues 1-616)
Setting: 8-mer, flanks averaged, mean of replicates
Construct (chain): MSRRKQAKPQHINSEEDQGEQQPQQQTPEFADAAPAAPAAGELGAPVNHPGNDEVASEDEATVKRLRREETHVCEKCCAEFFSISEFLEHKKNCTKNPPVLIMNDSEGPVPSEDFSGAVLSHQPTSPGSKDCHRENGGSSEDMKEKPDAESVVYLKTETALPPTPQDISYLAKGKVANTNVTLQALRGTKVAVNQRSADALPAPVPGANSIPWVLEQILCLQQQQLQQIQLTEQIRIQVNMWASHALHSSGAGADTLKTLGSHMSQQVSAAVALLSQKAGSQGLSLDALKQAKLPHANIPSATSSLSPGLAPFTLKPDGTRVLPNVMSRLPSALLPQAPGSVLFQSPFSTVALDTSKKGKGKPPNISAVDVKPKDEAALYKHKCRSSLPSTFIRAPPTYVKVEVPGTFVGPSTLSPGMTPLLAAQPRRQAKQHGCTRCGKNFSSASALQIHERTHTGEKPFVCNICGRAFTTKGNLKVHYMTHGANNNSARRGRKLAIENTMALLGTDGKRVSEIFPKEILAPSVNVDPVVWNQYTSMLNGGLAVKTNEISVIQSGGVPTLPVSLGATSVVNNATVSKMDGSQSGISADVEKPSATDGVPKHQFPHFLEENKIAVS
AGGGTACC: -0.232
AAGATCAG: -0.146
CATATAGC: 0.185
AATCCCGC: -0.106
TCATGAAA: 0.13
ACAATCCC: -0.00469
CAACACGG: -0.159
CACGACTC: -0.102
ACGCTGTG: -0.0484
CCGATCTC: -0.278
ATGAGCAC: -0.0786
AGGACATG: 0.0314
ACTAAAAT: 0.25
AGCCTGCA: -0.186
AGTGCCTC: -0.217
GATCTCGC: -0.116
GCTTGCGA: -0.015
CAACAATC: 0.0986
CCTTCGCC: -0.198
CAATCCTC: -0.0296
GTTCCGCA: -0.102
CCTTCTTA: 0.0304
CCAGGGCA: -0.267

Series 5 — method: protein-binding microarray; molecule type: double-stranded DNA, one strand shown; sample: in vitro; tested at: not given; reading: higher = stronger binding; quantity: E-score
Target: Transcription factor SOX-2, HMG box (SOX2, Homo sapiens, UniProt P48431, residues 19-118)
Sequence of UniProt P48431 (19-118, looked up): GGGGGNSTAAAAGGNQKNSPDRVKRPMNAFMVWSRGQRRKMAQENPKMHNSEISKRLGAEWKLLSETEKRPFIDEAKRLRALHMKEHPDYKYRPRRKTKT
Setting: k-mer, scored over probes, only values ≥0.25
ATTTATA: 0.306
ATTCAGC: 0.319
ATAAATA: 0.334
ACATTAT: 0.378
CTATGAA: 0.272
AGGACAA: 0.269
ATTATGC: 0.369
ACAAAGA: 0.331
AATTACT: 0.272
TTATAAA: 0.306
CCTATTA: 0.311
AATTCTG: 0.279
ACATATA: 0.324
AATTCTA: 0.308
ATTGAAG: 0.28
